# Values quoted from earlier work, collected from citations in different studies.
# Each line is one published result; not all experiments were run side by side. pEC50, pIC50: −log10 of the molar value.
# lasR: Transcriptional activator protein LasR (lasR, Pseudomonas aeruginosa, UniProt P25084)
# Chain of UniProt P25084 (whole entry, looked up): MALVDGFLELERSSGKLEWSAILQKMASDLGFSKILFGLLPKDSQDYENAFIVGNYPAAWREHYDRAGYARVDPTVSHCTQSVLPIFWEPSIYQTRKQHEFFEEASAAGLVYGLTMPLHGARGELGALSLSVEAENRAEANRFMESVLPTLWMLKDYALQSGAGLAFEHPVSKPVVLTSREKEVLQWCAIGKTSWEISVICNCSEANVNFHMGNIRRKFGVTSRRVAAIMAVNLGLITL
Compound,tested on,assay,test system,conditions,measurement,result
CC(=O)N1CCN(CC(=O)Nc2cncc3ccccc23)CC1,main protease (Mpro),,,50 µM,inhibition,42.4%
CCCCCCCCCCCCn1nnc(CC(=O)O)n1,lasR,"rsaL-yfp reporter, inhibitor",PAO-MW1,,maximal inhibition,80%
N#Cc1ccnc(N2C(=O)CC[C@H]2C(=O)N(c2cncc(F)c2)[C@H](C(=O)NC2CC(F)(F)C2)c2ccccc2Cl)c1,,,pretreated mIDH1 cholangiocarcinoma patients,"dose not given, trial",median progression-free survival,3.8 months
Oc1c(Br)cc(Br)c2nc3cc(Cl)ccc3nc12,Staphylococcus aureus,,MRSA,planktonic cells,MIC,0.1 µM
CC(C)[C@H](NC(=O)[C@H](CCCNC(=N)N)NC(=O)[C@H](Cc1ccccc1)NC(=O)[C@H](CS)NC(=O)[C@H](Cc1c[nH]c2ccccc12)NC(=O)[C@@H](N)CCCCN)C(=O)N[C@@H](CS)C(=O)N[C@@H](Cc1c[nH]c2ccccc12)C(=O)N[C@@H](CCCNC(=N)N)C(=O)N[C@@H](Cc1c[nH]c2ccccc12)C(=O)N[C@@H](Cc1ccccc1)C(=O)N[C@@H](CS)C(=O)N[C@@H](Cc1c[nH]c2ccccc12)C(=O)N[C@@H](CCCNC(=N)N)C(=O)N[C@@H](CCCCN)C(=O)N[C@@H](CS)C(=O)N[C@@H](CCCNC(=N)N)C(=O)O,Staphylococcus aureus,,,,MIC,32 µM
CCCCCCC#Cc1cncc(-c2nnc(SCc3cc([N+](=O)[O-])cc([N+](=O)[O-])c3)n2C)c1,Mycobacterium tuberculosis,MABA,Erdman wild type,,pIC50,6.47
CS(=O)(=O)c1ccc(N2CCNCC2)cc1,main protease (Mpro),,,20 µM,inhibition,-2.52%
CC(C)[C@H](NC(=O)CNC(=O)CNC(=O)[C@H](Cc1ccc(O)cc1)NC(=O)[C@H](CS)NC(=O)[C@@H](NC(=O)[C@H](Cc1c[nH]c2ccccc12)NC(=O)[C@H](Cc1ccccc1)NC(=O)[C@H](CS)NC(=O)[C@H](Cc1c[nH]c2ccccc12)NC(=O)[C@@H](N)CCCNC(=N)N)C(C)C)C(=O)N[C@@H](CS)C(=O)N[C@@H](Cc1ccc(O)cc1)C(=O)N[C@@H](CCCNC(=N)N)C(=O)N[C@@H](CCCNC(=N)N)C(=O)N[C@@H](CS)C(=O)N[C@@H](CCCNC(=N)N)C(=O)O,Escherichia coli,,,,MIC,> 128 µM
CCCCCCCCCC(=O)CC(=O)Nc1ccccc1O,lasR,"lasI-gfp(LVA) reporter, inhibitor",PAO-JP2,100 µM,inhibition,90%
CC[C@H](C)[C@H](NC(=O)[C@H](CCCCN)NC(=O)[C@H](CCC(=O)O)NC(=O)[C@@H](NC(=O)[C@H](CCCNC(=N)N)NC(=O)[C@@H](NC(=O)CNC(=O)[C@H](CC(C)C)NC(=O)[C@H](CCCCN)NC(=O)[C@H](CCCNC(=N)N)NC(=O)[C@H](CCC(=O)O)NC(=O)[C@H](CC(C)C)NC(=O)CNC(=O)[C@@H](N)CCCNC(=N)N)C(C)C)[C@@H](C)CC)C(=O)NCC(=O)N[C@@H](CCCNC(=N)N)C(=O)N[C@@H](CCCNC(=N)N)C(=O)N[C@@H](CC(C)C)C(=O)NCC(=O)N[C@@H](CCCNC(=N)N)C(=O)N[C@H](C(=O)N[C@@H](CC(C)C)C(=O)NCC(=O)N[C@@H](CCC(=O)O)C(=O)N[C@@H](Cc1c[nH]c2ccccc12)C(=O)N[C@@H](CCC(=O)O)C(=O)N[C@H](C(=O)N[C@@H](CCC(=O)O)C(=O)O)C(C)C)[C@@H](C)CC,Staphylococcus aureus,,,,MIC,32 µM
COC(=O)OC1C(=O)C2(C)C(O)CC3OCC3(OC(C)=O)C2C(OC(=O)c2cccc(OC(F)F)c2)C2(O)CC(OC(=O)C(O)C(C=C(C)C)NC(=O)OC(C)(C)C)C(C)=C1C2(C)C (centres unmarked),HCT-116,cytotoxicity,,,pIC50,8.89
COc1ccc2c3c1O[C@H]1[C@H](O)CC[C@@]4(O)[C@@H](C2)N(C)CC[C@]314,,"analgesia, Haffner tail-clip test",mouse,subcutaneous,ED50,8 mg/kg
Cc1[nH]c2ccccc2c1CC(=O)N[C@@H](Cc1ccccc1)C(=O)N(C)c1ccccc1,HIV-1 capsid hexamer wild type,,,,ΔTm,7.4 °C
O=S(=O)(c1ccc(-c2ccc3ncnc(Nc4ccc(OCc5cccc(Cl)c5)c(Cl)c4)c3c2)cc1)N1CCOCC1,Trypanosoma brucei,parasite growth,,,pEC50,6.18
O=C(NCCCCCCN1CCCC2=CC3CC(CN4CCCCC34)C21)c1ccc(OC(F)(F)F)cc1 (centres unmarked),HIV-1 NL4-3 Nanoluc,viral replication,MT-4,,pIC50,< 4.70
CC(=O)OC1C(=O)C2(C)C(O)CC3OCC3(OC(C)=O)C2C(OC(=O)c2cccc(OC(F)F)c2)C2(O)CC(OC(=O)C(O)C(C=C(C)C)NC(=O)OC(C)(C)C)C(C)=C1C2(C)C (centres unmarked),HCT-116,cytotoxicity,,,pIC50,8.76
CC[C@H](C)[C@H](NC(=O)[C@H](CCCCN)NC(=O)[C@H](CCCNC(=N)N)NC(=O)[C@H](CCCCN)NC(=O)[C@H](CC(C)C)NC(=O)[C@H](Cc1ccccc1)NC(=O)[C@H](CCC(=O)O)NC(=O)[C@H](CCCCN)NC(=O)[C@@H](NC(=O)[C@@H](NC(=O)[C@H](CCC(=O)O)NC(=O)[C@H](C)NC(=O)CNC(=O)[C@@H](N)CCCNC(=N)N)[C@@H](C)O)C(C)C)C(=O)N[C@@H](CCCNC(=N)N)C(=O)N[C@@H](CCC(=O)O)C(=O)N[C@@H](CCCNC(=N)N)C(=O)NCC(=O)N[C@H](C(=O)N[C@@H](CCCCN)C(=O)N[C@@H](C)C(=O)N[C@H](C(=O)N[C@H](C(=O)N[C@@H](C)C(=O)N[C@@H](Cc1c[nH]c2ccccc12)C(=O)O)[C@@H](C)CC)C(C)C)[C@@H](C)O,Staphylococcus aureus,,,,MIC,64 µM

# Some of these lines once more:
Compound,tested on,assay,test system,conditions,measurement,result
CCCCCCC#Cc1cncc(-c2nnc(SCc3cc([N+](=O)[O-])cc([N+](=O)[O-])c3)n2C)c1,Mycobacterium tuberculosis,MABA,Erdman wild type,,pIC50,6.47
CS(=O)(=O)c1ccc(N2CCNCC2)cc1,main protease (Mpro),,,20 µM,inhibition,-2.52%
